Results gathered from unrelated publications.
Compare with care: the assays were run in different laboratories. Values joined by “and” are separate records of one study, mostly repeats; a detail may differ.
Target: Serine/threonine-protein kinase pim-1 (PIM1, Homo sapiens, UniProt P11309)

SMILES | assay | setting | how to read | endpoint | value
C=CC(=O)Nc1cccc(-c2cnc3[nH]cc(C(=O)NC(C)(C)C)c3n2)c1 | kinase activity | 0.1 µM | – | inhibition | 1% and 2%
CCn1cc(C(=O)O)c(=O)c2c(N)c(F)c(NC3CCCCC3)cc21 | kinase activity | 0.1 µM, together with: ATP at Km | – | inhibition | 23.3%
C=C1CCCCCCCCCC(CO)C1=O (centres unmarked) | cell-free assay, competition with immobilised ligand | 10 µM | – | remaining binding | 100%
CCN1CCN(Cc2ccc(C(=O)Nc3ccc(C)c(NCc4cnc5[nH]ccc5c4OC)c3)cc2C(F)(F)F)CC1 | binding, competition with immobilised ligand | 1 µM | – | remaining binding | 100%
COc1c(OCCCN2CCOCC2)ccc2c1N=C(NC(=O)c1cnc(N)nc1)N1CCN=C21 | kinase activity, inhibitor | 1 µM | reference: untreated control | remaining activity | 114%
Cn1cc(-c2ccc3[nH]c4nccc(N[C@H]5CC[C@H](N6CCOCC6)CC5)c4c3c2)cn1 | enzyme activity, inhibitor, radiometric | 1 µM | – | inhibition | 92%
COc1ccc(NC(=O)Nc2ccc3c(c2)C(=O)N(C(C)CO)CC(C)C(CN(C)Cc2ccc4c(c2)OCO4)O3)cc1 (centres unmarked) | binding, competition with immobilised ligand | 10 µM | – | remaining binding | 87%
Cc1ccc(-c2c(/C=C(\C#N)C(=O)NC(C)C)n(CCCO)c3ncnc(N)c23)cc1 | cell-free assay, competition with immobilised ligand | 1 µM | – | remaining binding | 100%
Cc1cccc(O[C@H]2CCC[C@@H](C(C)CNCc3ccncc3)C2)c1 (relative stereo) | enzyme activity, inhibitor | 1 µM | – | inhibition | 0%
CNC1C[S+]2CC[S+]3CC[S+](C1)[Ru-4]321([N]=C=S)[n]2c3ccc(OC)cc3c3c4c(c5cc(F)c[n+]1c5c32)C(=O)NC4=O (centres unmarked) | KinomeScan | 0.1 µM | reference: untreated | remaining binding | 0.4%
COc1cc(Nc2nccc(-c3cnn4nc(OC)ccc34)n2)cc(C(F)(F)F)c1 | binding, competition with immobilised ligand | 1 µM | – | remaining binding | 100%
Cc1cccc(-c2ccc3nc(NC(=O)C4CCCO4)nn3c2)c1 (centres unmarked) | enzyme activity, Dundee kinase panel | 10 µM | – | remaining activity | 90%
Cc1cnc2nc1Nc1cccc(c1)COC/C=C/COCc1cc(ccc1OCCN1CCOCC1)N2 | binding | 0.1 µM | – | remaining binding | 100%
O=C(Cc1ccc(OCc2ccccc2)cc1)NC1(C(=O)O)CCN(C(=O)c2ccc(-c3cccc(Cl)c3)cc2)CC1 | enzyme activity, inhibitor | 10 µM | – | activity vs control | 101%
O=C(O)CCC(=O)c1cccc(NS(=O)(=O)c2c[nH]c3ncccc23)c1 | kinase activity, radiometric | 10 µM | – | remaining activity | 92%
Fc1cncc(-c2ccc3[nH]c4ncnc(N[C@H]5CC[C@H](N6CCOCC6)CC5)c4c3c2)c1 | enzyme activity, radiometric | 1 µM | – | inhibition | > 98%
CN1CCN(Cc2ccc(NC(=O)c3cccc(C#Cc4cnc(N)c5ncccc45)c3)cc2C(F)(F)F)CC1 | cell-free assay, competition with immobilised ligand | 50 nM | – | remaining binding | 77%
CNC(=O)C[C@H](Cc1ccc(C#N)cc1)NC(=O)c1cc(-c2ccc(CN[C@H](C)c3ccc(C)cc3)o2)ccc1Cl | enzyme activity, inhibitor | 1 µM | – | activity vs control | 100%
Cc1cccc(-c2ccc3nc(NC(=O)C4CCCCC4)nn3c2)c1 | enzyme activity, Dundee kinase panel | 10 µM | – | remaining activity | 99%
CC(=O)N1c2ccc(-c3ccc(CNC(=O)c4cn5cc(-c6cnc(N)nc6)nc(N6CCOCC6)c5n4)cc3)cc2CC[C@@H]1C | KINOMEscan | 10 µM | – | remaining binding | 92%
NC(=O)[C@@H](O)C[C@H]1CCc2sc3ncnc(O[C@H]4CC[C@H](N5CCOCC5)CC4)c3c21 | enzyme activity, inhibitor | 10 µM | – | inhibition | 11%
CNC(=O)C1CCN(c2cc(C)c(F)cc2NC(=O)c2ccc(-c3cc(O)ccc3C)c(C)c2)CC1 | binding, competition with immobilised ligand | 1 µM | – | remaining binding | 68%
COc1c(Cl)cccc1Nc1c(-c2ccncc2C#C[C@@]2(C)CCCN2C(=O)/C=C/CN(C)C)[nH]c2c1C(=O)NCC2 | binding, competition with immobilised ligand | 3 µM | – | remaining binding | 92%
CC(C)=CC1OC(C)(C)C2C=C3C(=O)C(Cl)=CC(O)C3C3C(O)C4OC4C(=O)C132 (centres unmarked) | cell-free assay, competition with immobilised ligand | 10 µM | – | remaining binding | 100%
COc1cncc(-c2ccc3[nH]c4ncnc(N[C@H]5CC[C@H](N6CCOCC6)CC5)c4c3c2)c1 | enzyme activity, inhibitor, radiometric | 1 µM | – | inhibition | 98%
C=CC(=O)N1Cc2nc(-c3cc(-c4cc(Cl)cnc4Cl)c(F)cc3F)n(-c3ccncn3)c2C1 | cell-free assay, inhibitor | 1 µM | – | inhibition | 4.2%
